Literature values that unrelated publications cite.
Lines come from different studies, so protocols differ. Numbers after ± are the reported error.
Sequence of UniProt P02730 (whole entry, looked up): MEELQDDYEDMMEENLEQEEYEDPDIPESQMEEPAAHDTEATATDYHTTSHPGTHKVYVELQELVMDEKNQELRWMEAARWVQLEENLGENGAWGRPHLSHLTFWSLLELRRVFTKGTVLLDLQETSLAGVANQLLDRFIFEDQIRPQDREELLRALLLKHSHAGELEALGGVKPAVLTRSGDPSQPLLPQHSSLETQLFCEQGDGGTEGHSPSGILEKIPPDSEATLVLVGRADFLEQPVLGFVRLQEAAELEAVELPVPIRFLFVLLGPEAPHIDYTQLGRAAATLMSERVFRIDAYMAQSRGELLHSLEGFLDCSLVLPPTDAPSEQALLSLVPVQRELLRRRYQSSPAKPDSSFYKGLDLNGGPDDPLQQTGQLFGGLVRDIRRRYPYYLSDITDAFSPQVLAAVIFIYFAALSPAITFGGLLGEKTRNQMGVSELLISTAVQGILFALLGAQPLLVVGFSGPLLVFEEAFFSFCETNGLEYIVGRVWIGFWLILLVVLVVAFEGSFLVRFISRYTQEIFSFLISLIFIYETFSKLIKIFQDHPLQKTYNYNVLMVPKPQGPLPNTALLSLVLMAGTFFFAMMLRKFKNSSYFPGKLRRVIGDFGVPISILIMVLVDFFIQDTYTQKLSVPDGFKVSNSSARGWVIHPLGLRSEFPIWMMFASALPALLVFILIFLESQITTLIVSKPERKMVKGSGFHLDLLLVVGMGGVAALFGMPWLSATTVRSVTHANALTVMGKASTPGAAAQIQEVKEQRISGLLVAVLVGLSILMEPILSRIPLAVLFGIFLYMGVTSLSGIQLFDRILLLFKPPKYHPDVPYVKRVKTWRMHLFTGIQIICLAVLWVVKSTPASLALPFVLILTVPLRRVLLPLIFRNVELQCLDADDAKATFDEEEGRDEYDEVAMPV
Sequence of UniProt P32245 (whole entry, looked up): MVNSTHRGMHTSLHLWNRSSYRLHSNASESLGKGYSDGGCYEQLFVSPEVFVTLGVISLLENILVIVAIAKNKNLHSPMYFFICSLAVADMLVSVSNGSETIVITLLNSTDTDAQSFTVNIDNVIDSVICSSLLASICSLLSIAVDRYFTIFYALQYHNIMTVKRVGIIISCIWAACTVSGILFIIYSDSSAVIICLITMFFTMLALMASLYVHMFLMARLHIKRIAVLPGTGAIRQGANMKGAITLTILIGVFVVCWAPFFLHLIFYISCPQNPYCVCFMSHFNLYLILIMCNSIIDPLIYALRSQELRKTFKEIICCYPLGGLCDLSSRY
Sequence of UniProt P02920 (whole entry, looked up): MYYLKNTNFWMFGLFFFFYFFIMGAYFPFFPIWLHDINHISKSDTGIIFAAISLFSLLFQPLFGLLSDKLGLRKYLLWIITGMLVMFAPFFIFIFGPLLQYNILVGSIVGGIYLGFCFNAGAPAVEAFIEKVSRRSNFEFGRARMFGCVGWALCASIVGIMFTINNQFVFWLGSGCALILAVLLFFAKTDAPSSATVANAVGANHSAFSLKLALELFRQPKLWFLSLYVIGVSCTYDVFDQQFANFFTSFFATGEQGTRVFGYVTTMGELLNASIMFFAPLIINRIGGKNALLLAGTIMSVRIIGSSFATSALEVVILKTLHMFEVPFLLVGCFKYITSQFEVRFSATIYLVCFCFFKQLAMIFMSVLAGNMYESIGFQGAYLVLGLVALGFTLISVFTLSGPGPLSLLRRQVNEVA
Sequence of UniProt P9WPN9 (whole entry, looked up): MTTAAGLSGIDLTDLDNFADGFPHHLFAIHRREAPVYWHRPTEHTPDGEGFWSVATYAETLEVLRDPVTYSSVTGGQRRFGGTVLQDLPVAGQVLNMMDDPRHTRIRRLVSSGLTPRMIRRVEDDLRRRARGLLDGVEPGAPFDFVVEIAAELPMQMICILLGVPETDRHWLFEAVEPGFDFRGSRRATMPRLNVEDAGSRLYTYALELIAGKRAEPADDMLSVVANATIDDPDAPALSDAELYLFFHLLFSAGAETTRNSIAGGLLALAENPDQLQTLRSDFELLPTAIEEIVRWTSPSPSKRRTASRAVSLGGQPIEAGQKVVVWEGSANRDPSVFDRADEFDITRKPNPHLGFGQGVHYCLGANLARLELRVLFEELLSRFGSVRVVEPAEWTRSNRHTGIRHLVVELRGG

| Substance | target | assay | system | conditions | scale | Kd |
| --- | --- | --- | --- | --- | --- | --- |
| N=C(N)NCCC[C@H](NC(=O)[C@@H](Cc1ccccc1)NC(=O)[C@H](Cc1c[nH]cn1)NC(=O)COCC(=O)NCCCOCCOCCOCCCNC(=O)CN(CCN(CCN(CC(=O)O)CC(=O)O)CC(=O)O)CC(=O)O)C(=O)N[C@@H](Cc1c[nH]c2ccccc12)C(N)=O | Melanocortin receptor 4 (MC4R, Homo sapiens, UniProt P32245) | binding | HEK293 transiently expressing MC4R | together with: MSH blocking non-specific binding |  | 9.1 µM |
| CC[C@]1(O)C[C@@H]2CN(CCc3c([nH]c4ccccc34)[C@@](C(=O)OC)(c3cc4c(cc3OC)N(C)[C@H]3[C@@](O)(C(=O)OC)[C@H](OC(C)=O)[C@]5(CC)C=CCN6CC[C@]43[C@@H]65)C2)C1 | microtubules |  |  | high-affinity site |  | ~1.9 µM |
| O=P(O)(O)O[C@@H]1[C@H](O)[C@H](O)[C@@H](OP(=O)(O)O)[C@H](OP(=O)(O)O)[C@H]1O | IP3R1 N-terminal domain residues 1-604 | binding, FP competition |  | 37 °C |  | 0.49 ± 0.04 µM |
| O=C1Nc2ccc(Cl)cc2[C@@](C#CC2CC2)(C(F)(F)F)O1 | HIV-1 reverse transcriptase |  |  | together with: efavirenz |  | 0.15 µM |
| CC(=O)O[C@H]1C(=O)[C@@]2(C)[C@H]([C@H](OC(=O)c3ccccc3)[C@]3(O)C[C@H](OC(=O)[C@H](O)[C@@H](NC(=O)c4ccccc4)c4ccccc4)C(C)=C1C3(C)C)[C@]1(OC(C)=O)CO[C@@H]1C[C@@H]2O | tubulin | competition binding | cross-linked microtubules | together with: Flutax-2 |  | 0.027 µM |
| O=[N+]([O-])c1ccc(O[C@H]2O[C@H](CO)[C@H](O)[C@H](O)[C@H]2O)cc1 | lacY (Escherichia coli, UniProt P02920) | ligand, stopped-flow FRET | DDM-solubilised protein |  |  | 65 µM |
| O=O | FixL | binding, spectroscopy |  |  |  | 50 µM |
| CCCCNc1ccc(C(=O)OCCN(C)C)cc1 | CNG channel | binding |  | closed channel state |  | 0.22 µM |
| CSCC[C@H](NC(=O)[C@H](CCC(=O)O)NC(=O)[C@@H](N)CS)C(=O)N[C@@H](CO)C(=O)N[C@@H](Cc1c[nH]cn1)C(=O)N[C@@H](CCCCN)C(=O)N[C@@H](CCCCN)C(=O)N[C@@H](CO)C(=O)N[C@@H](Cc1ccccc1)C(=O)N[C@@H](Cc1ccccc1)C(=O)N[C@@H](CC(=O)O)C(=O)N[C@@H](CCCCN)C(=O)N[C@@H](CCCCN)C(=O)N[C@@H](CCCNC(=N)N)C(=O)N[C@@H](CO)C(=O)N[C@@H](CCC(=O)O)C(=O)N[C@@H](CCCNC(=N)N)C(=O)O | Rev1 C-terminal domain | binding, tryptophan fluorescence titration |  |  |  | ~0.3 µM |
| Nc1ncnc2c1ncn2[C@H]1C[C@H](O)[C@@H](COP(=O)(O)NP(=O)(O)OP(=O)(O)O)O1 | DNA polymerase beta | nucleotide insertion |  | opposite templating guanosine |  | 210 ± 50 µM |
| CCCCCCCCCCCCCCCCCCCCCCCCCC(=O)N[C@@H](CO[C@H]1O[C@H](CO)[C@H](O)[C@H](O)[C@H]1O)[C@H](O)[C@H](O)CCCCCCCCCCCCCC | CD1d, mouse | binding, surface plasmon resonance |  |  |  | 0.34 µM |
| fibrinogen | integrin alphaIIb beta3 (active) | binding |  |  |  | ~0.1 µM |
| dalotuzumab | IGF-1R | binding |  |  |  | ~0.001 µM |
| CC(=O)N1CCN(c2ccc(OCC3COC(Cn4ccnc4)(c4ccc(Cl)cc4Cl)O3)cc2)CC1 (stereo not drawn) | cyp126 (Mycobacterium tuberculosis, UniProt P9WPN9) | binding |  |  |  | 1.4 µM |
| [I-].[K+] | SLC4A1 (Homo sapiens, UniProt P02730) | binding |  | citrate replacing chloride | external site | 2500 to 2800 µM |
| CC(C)CCC[C@@H](C)[C@H]1CC[C@H]2[C@@H]3CC=C4C[C@@H](O)CC[C@]4(C)[C@H]3CC[C@]12C | TSPO Rhodobacter sphaeroides wild type |  | purified protein |  |  | ~80 µM |
| Cc1cn([C@H]2C[C@H](O)[C@@H](COP(=O)(O)OP(=O)(O)OP(=O)(O)O)O2)c(=O)[nH]c1=O | bacteriophage T4 DNA polymerase exo- | nucleotide binding |  | opposite template 2-aminopurine, together with: chain-terminated DNA, Mg2+ |  | ~31 µM |
| Nc1ncnc2c1ncn2[C@@H]1O[C@H](COP(=O)(O)OP(=O)(O)NP(=O)(O)O)[C@@H](O)[C@H]1O | CFTR NBD1 | binding, SPR or ITC |  |  |  | 11 ± 1.1 µM |

Repeated from above:
| Substance | target | assay | system | conditions | scale | Kd |
| --- | --- | --- | --- | --- | --- | --- |
| O=C1Nc2ccc(Cl)cc2[C@@](C#CC2CC2)(C(F)(F)F)O1 | HIV-1 reverse transcriptase |  |  | together with: efavirenz |  | 0.15 µM |
| CC(=O)O[C@H]1C(=O)[C@@]2(C)[C@H]([C@H](OC(=O)c3ccccc3)[C@]3(O)C[C@H](OC(=O)[C@H](O)[C@@H](NC(=O)c4ccccc4)c4ccccc4)C(C)=C1C3(C)C)[C@]1(OC(C)=O)CO[C@@H]1C[C@@H]2O | tubulin | competition binding | cross-linked microtubules | together with: Flutax-2 |  | 0.027 µM |
